# Measured values gathered from unrelated publications.
# Lines come from different studies, so protocols differ.
# Target: Serine/threonine-protein kinase pim-2 (PIM2, Homo sapiens, UniProt Q9P1W9)
# UniProt Q9P1W9, sequence (whole entry, looked up): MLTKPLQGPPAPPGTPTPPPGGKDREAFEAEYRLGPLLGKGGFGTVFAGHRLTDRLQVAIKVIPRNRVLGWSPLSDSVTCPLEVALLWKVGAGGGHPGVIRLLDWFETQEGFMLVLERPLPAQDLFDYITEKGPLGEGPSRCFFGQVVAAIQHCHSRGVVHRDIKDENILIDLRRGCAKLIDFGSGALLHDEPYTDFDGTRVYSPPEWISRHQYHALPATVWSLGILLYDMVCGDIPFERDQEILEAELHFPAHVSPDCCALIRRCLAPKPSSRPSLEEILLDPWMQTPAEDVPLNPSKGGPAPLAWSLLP
Structure (SMILES),test,conditions,how to read,quantity,value
O=C(O)c1ccccc1/C=N/Nc1nc(-c2ccccc2Cl)cs1,"enzyme activity, inhibitor",1 µM,,inhibition,-6.91%
CS(C)(=O)=Nc1ccc(-c2ccc(-c3nc4cc(O[C@@H]5CO[C@H]6[C@@H]5OC[C@H]6O)[nH]c4cc3F)cc2)cc1,"enzyme activity, inhibitor",10 µM,,inhibition,0%
O=C1NC(=O)c2c1c1cc(F)c[n+]3c1c1c2c2cc(O)ccc2[n]1[Ru-4]312([N]=C=S)[S+]3CC[S+]1CC[S+]2CC3 (stereo not drawn),enzyme activity,"100 nM, human enzyme, added: 10 µM ATP",baseline: untreated,remaining activity,3%
N[C@H](C(=O)N1CCCC1)C1CCN(c2nccc3c(-c4ncc(Cl)cc4Cl)cccc23)CC1,"kinase activity, inhibitor","10 µM, added: ATP 1 mM",,inhibition,5.5%
CC(C)[C@H]1NC(=O)C[C@H]2/C=C/CCSSC[C@@H](NC1=O)C(=O)N[C@H](Cc1cccc3ccccc13)C(=O)NCC(=O)O2,"enzyme activity, inhibitor",10 µM,,inhibition,1.3%
C[C@H](NCc1ccc(-c2ccc(C(F)(F)F)cc2)cc1)C(N)=O,"cell-free assay, competition with immobilised ligand",1 µM,,inhibition,6%
CCOC(=O)[C@@H]1Cc2c(cc([N+](=O)[O-])cc2[N+](=O)[O-])[C@H](O)[C@]12C(=O)Nc1ccc(Br)cc12,"binding, competition with immobilised ligand",0.1 µM,,remaining binding,52%
Nc1ccc(/C=C/C(=O)N2CCc3c(oc4c(-c5ccc(F)cc5)cc(-c5ccc(C(=O)N6CCC(F)(F)CC6)cn5)cc34)C2)cn1,"binding, competition with immobilised ligand",1 µM,,remaining binding,100%
CN(/N=C/c1ccccc1C(=O)O)c1nc(-c2ccccc2Cl)cs1,"enzyme activity, inhibitor",1 µM,,inhibition,-15.2%
